# Assay results from different studies.
# Lines come from different studies, so protocols differ. ± marks the error that the study gave.
Structure (SMILES),cell line,test,setting,scale,quantity,value
CC(=O)[C@H]1CC[C@H]2[C@@H]3C=CC4=CC(=O)CC[C@@]4(C)[C@@H]3CC[C@]12C,THP-1,pyroptotic LDH release,"2 µM, 40 min, with: LPS then nigericin",,inhibition,47.5%
Nc1ncc(-c2ccccc2)nc1Nc1ccc2[nH]ccc2c1,HEK293T ATF4-FLuc reporter,"ATF4 reporter gene, activator, luciferase reporter",,,EC50,5.64 µM
COc1cc(/C=C/C(=O)O)ccc1O,Caco-2/THP-1 co-culture,TEER,"concentration not given, with: LPS 500 ng/mL",reference: control,transepithelial electrical resistance,85 ± 4.8%
CCn1cc(-c2cc(Cn3ccnc3)cc3c2CCN([C@H](c2cc(OC)ccn2)C2CC2)C3=O)c(C(F)(F)F)n1,SNU119,cell growth,120 h,,EC50,2.43 µM
Cn1c(Nc2nc3ccc(C(F)(F)F)cc3s2)nc2cc(C(=O)NCCOCCO)ccc21,SH-SY5Y,"RNA-seq, refers to: ITGA2 mRNA","5 µM, 5 h",reference: untreated cells,fold change,2.25
Cn1cc(-c2ccc(-c3cncc(Cl)c3N3CCC4(CCNC4=O)CC3)cc2)cn1,COLO 205,"gene expression, microarray, refers to: BTG2 mRNA","concentration not given, 2 h",reference: untreated cells,log2 fold change,2.51
O=C(Nc1ccc(Cl)cc1)Nc1ccc(Cl)c(Cl)c1,HEK293T ATF4-FLuc reporter,"ATF4 reporter gene, activator, luciferase reporter",,,EC50,3.14 µM
O=C(/C=C/C=C/C=C/C1CCCCC1)NC1=C[C@@](O)(/C=C/C=C/C=C/C(=O)NC2=C(O)CCC2=O)[C@@H]2O[C@@H]2C1=O,KYSE-520,"cell growth, CellTiter-Glo",78 h,,GI50,15.5 µM
O=c1[nH]nc(OCCCc2ccc(Cl)cc2)c(NCc2cccnc2)c1Br,HEK-293T,"RNA-seq GSEA, refers to: HALLMARK_FATTY_ACID_METABOLISM",concentration not given,direction not given,normalized enrichment score,0.963
CCCCCCCCCCC(=O)O,THP-1,pyroptotic LDH release,"2 µM, 40 min, with: LPS then nigericin",,inhibition,-1.52%
O=C(c1cc(Cc2n[nH]c(=O)c3ccccc23)ccc1F)N1CCN(C(=O)C2CC2)CC1,MDA-MB-436 BRCA1-mutant,colony formation,10 nM,reference: vehicle (DMSO),colony survival,56.5%
O=C(O)CC(O)C(=O)O (stereo not shown),THP-1,pyroptotic LDH release,"2 µM, 40 min, with: LPS then nigericin",,inhibition,0.799%
O=C(Nc1cc(C(F)(F)F)ccc1C(F)(F)F)c1cc(Br)ccc1O,HEK293T ATF4-FLuc reporter,"ATF4 reporter gene, activator, luciferase reporter",,,EC50,1.12 µM
Nc1ccc(Cl)cc1Cl,THP-1,pyroptotic LDH release,"2 µM, 40 min, with: LPS then nigericin",,inhibition,47%
CCn1cc(-c2cc(Cn3ccoc3=N)cc3c2CCN([C@@H](C)c2cc(OC)ccn2)C3=O)c(C(F)(F)F)n1,OV7,"cell growth, inhibitor",120 h,,EC50,0.181 µM
CCC(=O)O[C@]1(C(=O)CCl)[C@@H](C)C[C@H]2[C@@H]3CCC4=CC(=O)C=C[C@]4(C)[C@@]3(F)[C@@H](O)C[C@@]21C,THP-1,pyroptotic LDH release,"2 µM, 40 min, with: LPS then nigericin",,inhibition,23.3%
COc1cnc2cccc(N3CCc4c(cc(Cn5ccnc5C)cc4-c4cn(C)nc4C(F)(F)F)C3=O)c2c1,HEP3B217,cell growth,120 h,,EC50,3.03 µM
CCCCc1oc2ccc(NS(C)(=O)=O)cc2c1C(=O)c1ccc(OCCCN(CCCC)CCCC)cc1,human embryonic stem cell aggregates,"mRNA level, microarray, refers to: KCNQ5","0.5 µM, 120 h","reference: untreated, down-regulated",fold change,3.9 fold
C=C[C@@H]1C[C@]1(NC(=O)[C@@H]1C[C@@H]2CN1C(=O)[C@H](C(C)(C)C)NC(=O)O[C@@H]1C[C@H]1CCCCCc1nc3ccc(OC)cc3nc1O2)C(=O)NS(=O)(=O)C1CC1,THP-1,pyroptotic LDH release,"2 µM, 40 min, with: LPS then nigericin",,inhibition,47.9%

# Excerpt of the above:
Structure (SMILES),cell line,test,setting,scale,quantity,value
CCCCCCCCCCC(=O)O,THP-1,pyroptotic LDH release,"2 µM, 40 min, with: LPS then nigericin",,inhibition,-1.52%
O=C(c1cc(Cc2n[nH]c(=O)c3ccccc23)ccc1F)N1CCN(C(=O)C2CC2)CC1,MDA-MB-436 BRCA1-mutant,colony formation,10 nM,reference: vehicle (DMSO),colony survival,56.5%
